Assay results gathered from unrelated publications.
Parts stem from different laboratories: compare values within a part only.

Block 1
Target: Max-binding protein MNT, bHLH-zipper, MAX partner unstated (MNT, Homo sapiens, UniProt Q99583, residues 220-300)
Technique: protein-binding microarray
Molecule type: double-stranded DNA, one strand shown
Sample: in vitro
Tested at: not given
Setting: k-mer, scored over probes, only values ≥0.25
Direction: higher = stronger binding
Target sequence (chain): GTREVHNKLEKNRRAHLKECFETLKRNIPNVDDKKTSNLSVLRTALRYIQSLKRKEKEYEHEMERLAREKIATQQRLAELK
Strand | E-score
CACGTTGG | 0.42
ACATGCAG | 0.32
CATGGTCG | 0.347
GGGTGGGA | 0.396

Block 2
Target: Histone acetyltransferase KAT6A, winged helix 1, GST fusion (KAT6A, Homo sapiens, UniProt Q92794, residues 1-85)
Technique: protein binding microarray
Molecule type: double-stranded DNA, one strand shown
Sample: in vitro
Tested at: not given
Setting: 8-mer, flanks averaged, mean of 2 arrays, mostly near background
Reference: not given
Direction: higher = stronger binding
Construct (chain): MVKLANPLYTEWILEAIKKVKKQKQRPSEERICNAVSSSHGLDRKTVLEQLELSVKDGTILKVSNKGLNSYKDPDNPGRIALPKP
Strand | E-score
ACTCGGGG | 0.119
TGCCCGAA | -0.181
CAAGTAAA | -0.0511
GTCATGGA | -0.152
AGAAGAAG | -0.174

Block 3
Target: PABPC1L2, full length, GST fusion (mouse, UniProt A0ABA7IW68)
Technique: RNAcompete
Molecule type: RNA
Sample: in vitro
Tested at: 20 nM
Setting: 7-mer, probes averaged, single round
Reference: mean of 7-mers
Direction: higher = stronger binding
Construct (chain): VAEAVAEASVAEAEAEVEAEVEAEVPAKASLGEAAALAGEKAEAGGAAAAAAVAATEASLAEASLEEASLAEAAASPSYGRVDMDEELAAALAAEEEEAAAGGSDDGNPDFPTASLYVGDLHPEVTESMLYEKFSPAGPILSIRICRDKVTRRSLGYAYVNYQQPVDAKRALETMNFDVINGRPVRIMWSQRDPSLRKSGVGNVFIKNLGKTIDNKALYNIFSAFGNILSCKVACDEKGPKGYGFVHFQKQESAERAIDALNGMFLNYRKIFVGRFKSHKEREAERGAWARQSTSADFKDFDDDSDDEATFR
Strand | 7-mer Z-score
ACUGCGU | -0.262
AUUCCUU | -0.431
AUACGUA | -0.0917
GCUUCUA | -0.235
GCUCUAU | -0.186

Single results of other studies
Substance | target | test | system | conditions | how to read | endpoint | value
PhoQ, residues 284 288 289 292 302 303 TNASYF | PhoP, residues 12 14 15 18 19 LWHVM (Escherichia coli, UniProt P23836) | Sort-seq, measured: YFP reporter | E. coli | PhoQ-PhoP variant library, with: 10 µM Mg2+ | reference: high Mg2+ state, higher = stronger signaling | fold induction | 4.76
